Measured values pooled from the literature.
Values joined by “and” are separate records of one study, mostly repeats; a detail may differ. Numbers after ± are the reported error.

N#CC(c1ccc(Cl)cc1)c1c(Cl)cc(-n2ncc(=O)[nH]c2=O)cc1Cl (stereo not shown)
inhibition (THP-1; pyroptotic LDH release; 2 µM, 40 min, together with: LPS then nigericin): -8.62%

O=C(NN=Cc1ccc(C[n+]2ccccc2)cc1)c1ccc2ccc3ccc(C(=O)NN=Cc4ccc(C[n+]5ccccc5)cc4)nc3c2n1.[Br-].[Br-]
ΔTm (MYC parallel G4 DNA; FRET melting; 1 µM, DNA 0.2 µM): 21.9 ± 0.1 °C

N#Cc1cccc(Nc2nc3cc(C(=O)O)ccc3c3cnccc23)c1
number of kinases inhibited (DYRK and HIPK kinases; enzyme activity, inhibitor, eight-kinase enzymatic panel; 1 µM, percent of control below 10): 4

CC1CCCN1c1nccc(-c2cnn3ncccc23)n1 (stereo not shown)
remaining binding (FLT3 ITD human; KINOMEscan binding; 1000 nM; reference: control): 100%

Cc1[nH]c(/C=C2\C(=O)Nc3ccc(S(=O)(=O)Cc4c(Cl)cccc4Cl)cc32)c(C)c1C(=O)N1CCC[C@@H]1CN1CCCC1
inhibition (THP-1; pyroptotic LDH release; 2 µM, 40 min, together with: LPS then nigericin): 64.4%

C[S+](C)CCC(=O)[O-]
ΔTm (SAR11_0797 Candidatus Pelagibacter ubique; differential scanning fluorimetry; concentration not given, unit not given; higher = stronger binding): 2.34

c1coc(-c2n[nH]cc2-c2ccnc3ccccc23)c1
log2 fold change (orf19.4518 Candida albicans; kinase binding, MIB/MS competition; Candida albicans lysate; 10 µM; reference: DMSO): -0.1

Cl.Fc1ccc(Nc2nc(NCC3CCCO3)c3ccccc3n2)cc1 (stereo not shown)
inhibition (Renilla luciferase reporter mRNA; in vitro translation, inhibitor; Trypanosoma cruzi translation extract; 5 µM): 20.9%

COc1ccnn2ncc(-c3ccnc(N(C)C)n3)c12
remaining binding (FLT3 ITD human; KINOMEscan binding; 1000 nM; reference: control): 100%

C=CC(=O)N1CCC(C(=O)NCC(=O)N2CCN(c3nc(-c4cnc(N)nc4C(F)F)nc(N4CCOCC4)n3)CC2)CC1
remaining binding (FLT3 ITD/D835V; KINOMEscan; 1 µM; reference: vehicle): 87%

CN1C[C@H](COc2nccc3c(NCc4ccco4)cc(Cl)nc23)OC1=O
enzyme activity (alpha-galactosidase A (GLA) human; activator; Fabry disease iPSC-derived cardiomyocytes; 10 µM; reference: wild type): 17.2%

C[C@@H](c1ccc(-n2cnc3c(N)ncnc32)cc1)N1CCc2nn(C)c(Cc3ccccc3)c2C1=O
remaining binding (FLT3 ITD D835V; KINOMEscan; 100 nM; reference: DMSO): 74%

CCCCCCCC(=O)OC[C@H](COP(=O)(O)O[C@@H]1[C@H](O)[C@H](O)[C@@H](OP(=O)(O)O)[C@H](OP(=O)(O)O)[C@H]1O)OC(=O)CCCCCCC
efficacy factor E2 (Kv7.2/Kv7.3(EEE) mutant channel; channel open probability, activator, fitted PIP2 binding model; model 5, efficacy fixed to wild type; reference: channel without bound PIP2): 0.18

CN(C)c1nccc(-c2cnn3ncccc23)n1
remaining binding (FLT3 ITD human; KINOMEscan binding; 1000 nM; reference: control): 85%

COc1cccc(Nc2nc(NCC3CCCO3)c3ccccc3n2)c1.Cl (stereo not shown)
inhibition (Renilla luciferase reporter mRNA; in vitro translation, inhibitor; Trypanosoma cruzi translation extract; 10 µM): 16%

COc1ccc(F)cc1C(=O)NCc1ccc(-c2nn([C@@H](C)C(F)(F)F)c(N)c2C(N)=O)cc1
IC50 (PLCγ2 human; PLCγ2 phosphorylation, measured: PLCγ2 Y1217; Ramos RA1): 9.1 nM

O=C(O)c1ccc2c(c1)nc(NCCc1cccc(Cl)c1)c1ccncc12
number of kinases inhibited (DYRK and HIPK kinases; enzyme activity, inhibitor, eight-kinase enzymatic panel; 1 µM, percent of control below 10): 1

Fc1ccccc1Nc1nc(NCC2CCCO2)c2ccccc2n1 (stereo not shown)
inhibition (Renilla luciferase reporter mRNA; in vitro translation, inhibitor; Trypanosoma cruzi translation extract; 30 µM): 61.9%

O=C(O)c1ccc2c(c1)nc(NCCc1ccccc1)c1ccncc12
number of kinases inhibited (DYRK and HIPK kinases; enzyme activity, inhibitor, eight-kinase enzymatic panel; 1 µM, percent of control below 10): 5

Clc1nc(NCc2ccco2)c2[nH]cnc2n1
enzyme activity (alpha-galactosidase A (GLA) human; activator; Fabry disease iPSC-derived cardiomyocytes; 10 µM; reference: wild type): 8.5%

O=C(O)c1ccc2c(c1)nc(NCCc1ccccc1)c1ncncc12
number of kinases inhibited (DYRK and HIPK kinases; enzyme activity, inhibitor, eight-kinase enzymatic panel; 1 µM, percent of control below 10): 1

COc1cc(/C=C/C(=O)CC(=O)/C=C/c2ccc(O)c(OC)c2)ccc1O
inhibition (17β-HSD (human); androstenedione formation; LS180; 100 µM, together with: testosterone 50 µM): ~50%

CCNC(=O)/C=C/c1cccc(Br)c1
L-leucine uptake (endogenous leucine transporters hamster; inhibitor, L-[14C]leucine uptake; CHO-BC cells; 1 µM, sodium-free): 27.9 nmol/6 min/mg protein and 26.7 nmol/6 min/mg protein and 28.8 nmol/6 min/mg protein

C[n+]1cccc2cc(C=NNC(=O)c3ccc4ccc5ccc(C(=O)NN=Cc6ccc7c(ccc[n+]7C)c6)nc5c4n3)ccc21.[I-].[I-]
ΔTm (MYC parallel G4 DNA; FRET melting; 1 µM, DNA 0.2 µM): 20.8 ± 0.4 °C

CC[C@H](C)[C@H](NC(=O)[C@H](CC(=O)O)NC(=O)[C@H](CCC(=O)O)NC(=O)[C@@H](N)CC(N)=O)C(=O)N[C@@H](CC(=O)O)C(=O)N[C@@H](CCC(N)=O)C(=O)N[C@@H](CCSC)C(=O)N[C@@H](Cc1ccccc1)C(=O)N[C@@H](CO)C(=O)N[C@H](C(=O)N[C@@H](CC(C)C)C(=O)N[C@@H](CC(C)C)C(=O)NCC(=O)N[C@@H](CCC(=O)O)C(=O)N[C@@]1(C)CCCC=CCCC[C@@](C)(C(=O)N[C@@H](CCC(N)=O)C(=O)N[C@@H](CO)C(=O)O)NC(=O)[C@H](CC(C)C)NC(=O)[C@H](CC(C)C)NC(=O)[C@H](CC(=O)O)NC1=O)[C@@H](C)O
integrin αIIbβ3 activation (talin head domain; inhibitor, PAC-1 flow cytometry; CHO-A5 expressing GFP-talin head domain; 10 µM, 30 min, 37 °C): inhibited

O=C(O)c1ccc2c(c1)nc(Nc1ccc(F)c(Cl)c1)c1ccncc12
number of kinases inhibited (DYRK and HIPK kinases; enzyme activity, inhibitor, eight-kinase enzymatic panel; 1 µM, percent of control below 10): 6

Cc1ncc(C[n+]2csc(CCO[P@](=O)(O)OP(=O)(O)O)c2C)c(N)n1
ΔTm (SAR11_0797 Candidatus Pelagibacter ubique; differential scanning fluorimetry; concentration not given, unit not given; higher = stronger binding): 2.07

C#Cc1cc(-c2cc(Nc3nc(N[C@@H](C)c4ccc(F)cn4)ncc3Cl)n[nH]2)ccc1C=O
inhibition (FLT3 ITD, human; kinase activity, inhibitor; 0.2 µM): 99% and 98.3%

O=C(O)c1ccc2c(c1)nc(Nc1ccc3ccccc3c1)c1ccncc12
number of kinases inhibited (DYRK and HIPK kinases; enzyme activity, inhibitor, eight-kinase enzymatic panel; 1 µM, percent of control below 10): 5

CC(Nc1nc(N2CCCC2)nc2ccccc12)c1ccccc1 (stereo not shown)
cells with nuclear reporter (transportin-1/2; FUS nuclear import, high content imaging; HeLa Kyoto reporter; 1.58 µM, 2 h): 94.8%

Oc1ccccc1-c1n[nH]cc1-c1ccnc2ccccc12
log2 fold change (orf19.4518 Candida albicans; kinase binding, MIB/MS competition; Candida albicans lysate; 1 µM; reference: DMSO): 0.21

O=C(O)c1ccc2c(c1)nc(NCCc1cccc(Cl)c1)c1ncncc12
number of kinases inhibited (DYRK and HIPK kinases; enzyme activity, inhibitor, eight-kinase enzymatic panel; 1 µM, percent of control below 10): 0

Cl.OCCNc1nc(Nc2ccccc2)nc2ccccc12
inhibition (Renilla luciferase reporter mRNA; in vitro translation, inhibitor; Trypanosoma cruzi translation extract; 20 µM): 49.3%

O=C(O)c1ccc2c(c1)nc(Nc1ccc3ccccc3c1)c1ncncc12
number of kinases inhibited (DYRK and HIPK kinases; enzyme activity, inhibitor, eight-kinase enzymatic panel; 1 µM, percent of control below 10): 6

Cc1ccc(C(=O)Nc2ccc3ccccc3c2)o1
inhibition (human Kv7.1; ion current, whole-cell patch-clamp; 10 µM): 7.91%

F[C@@H]1CCN(c2nccc(-c3cnn4ncccc34)n2)C1
remaining binding (FLT3 ITD human; KINOMEscan binding; 1000 nM; reference: control): 100%

Nc1ncc2c(n1)-c1c([nH]c3ccc(C#CC4CC4)cc13)CCCC2
remaining binding (FLT3 ITD D835V; scanMAX; 1 µM; reference: control): 75%

Some of these lines once more:
Cc1[nH]c(/C=C2\C(=O)Nc3ccc(S(=O)(=O)Cc4c(Cl)cccc4Cl)cc32)c(C)c1C(=O)N1CCC[C@@H]1CN1CCCC1
inhibition (THP-1; pyroptotic LDH release; 2 µM, 40 min, together with: LPS then nigericin): 64.4%

O=C(O)c1ccc2c(c1)nc(NCCc1ccccc1)c1ncncc12
number of kinases inhibited (DYRK and HIPK kinases; enzyme activity, inhibitor, eight-kinase enzymatic panel; 1 µM, percent of control below 10): 1

COc1cccc(Nc2nc(NCC3CCCO3)c3ccccc3n2)c1.Cl (stereo not shown)
inhibition (Renilla luciferase reporter mRNA; in vitro translation, inhibitor; Trypanosoma cruzi translation extract; 10 µM): 16%

O=C(NN=Cc1ccc(C[n+]2ccccc2)cc1)c1ccc2ccc3ccc(C(=O)NN=Cc4ccc(C[n+]5ccccc5)cc4)nc3c2n1.[Br-].[Br-]
ΔTm (MYC parallel G4 DNA; FRET melting; 1 µM, DNA 0.2 µM): 21.9 ± 0.1 °C

C#Cc1cc(-c2cc(Nc3nc(N[C@@H](C)c4ccc(F)cn4)ncc3Cl)n[nH]2)ccc1C=O
inhibition (FLT3 ITD, human; kinase activity, inhibitor; 0.2 µM): 99% and 98.3%

CCNC(=O)/C=C/c1cccc(Br)c1
L-leucine uptake (endogenous leucine transporters hamster; inhibitor, L-[14C]leucine uptake; CHO-BC cells; 1 µM, sodium-free): 27.9 nmol/6 min/mg protein and 26.7 nmol/6 min/mg protein and 28.8 nmol/6 min/mg protein
